Assay results gathered from unrelated publications.
Compare with care: the assays were run in different laboratories. ± gives the spread as reported.
rep main protease: Replicase polyprotein 1ab, main protease (rep, Severe acute respiratory syndrome coronavirus 2, UniProt P0DTD1)
Spike glycoprotein: Spike glycoprotein (Severe acute respiratory syndrome coronavirus 2, UniProt P0DTC2)

CCCCc1ccc(O)cc1O
inhibition (rep main protease; reporter gene (Gaussia luciferase), inhibitor; 20 µM): 2.14%

O=C(OC[C@H]1OC(OC(=O)c2cc(O)c(O)c(O)c2)[C@H](OC(=O)c2cc(O)c(O)c(O)c2)[C@@H](OC(=O)c2cc(O)c(O)c(O)c2)[C@@H]1OC(=O)c1cc(O)c(O)c(O)c1)c1cc(O)c(O)c(O)c1 (some centres unmarked)
koff (Spike glycoprotein; binding, biolayer interferometry): 0.00373 s⁻¹

CC(C)(C(=O)NCC(F)(F)C(F)(F)F)C(=O)N[C@@H]1C(=O)Nc2ccccc2-c2ccccc21
inhibition (rep main protease; reporter gene (mKate2), inhibitor; 20 µM): -0.809%

Cc1ncc(/C=C\C(=O)N2C[C@@H](NC(=O)c3ccc[nH]c3=O)CC3(CCOCC3)C2)c(=O)[nH]1
inhibition (rep main protease; enzyme activity; 5 µM): 15.9%

Clc1ccc(Cn2c(CN3CCCC3)nc3ccccc32)cc1
inhibition (rep main protease; reporter gene (Gaussia luciferase), inhibitor; 20 µM): -0.691%

C[C@]1(C(=O)N[C@@H]2CC[C@H]3C[C@@H]2CN3C(=O)Cc2cncc(O)c2)CCc2ccccc2C1
inhibition (rep main protease; enzyme activity, inhibitor; 5 µM, run 1): 13.8%

CO[C@H]1[C@@H](O)[C@H](O[C@@H]2[C@@H](C)O[C@@H](O[C@H]3CC[C@@]4(C)[C@@H](CC[C@@]56O[C@@]57CC[C@@H](C(C)=O)[C@@]7(C)[C@H](OC(C)=O)[C@@H](OC(=O)c5ccccc5)[C@H]46)C3)C[C@H]2OC)O[C@H](C)[C@H]1O
kon (Spike glycoprotein; binding, biolayer interferometry): 7790 M⁻¹ s⁻¹

Nc1ncnc2c([C@@H]3N[C@H](CO)[C@@H](O)[C@H]3O)c[nH]c12
inhibition (Middle East respiratory syndrome-related coronavirus; viral replication; Vero C1008, Jordan N3; 6.3 µM): 5.7%

CC[C@H](C)[C@H](NC(=O)[C@H](CC(C)C)NC(=O)[C@H](Cc1c[nH]c2ccccc12)NC(=O)[C@H](CCC(N)=O)NC(=O)[C@@H](NC(=O)[C@H](Cc1ccccc1)NC(=O)[C@H](C)NC(=O)[C@H](CCCCNC(=O)COCCOCCNC(=O)COCCOCCNC(=O)CC[C@H](NC(=O)CCCCCCCCCCCCCCCCCCC(=O)O)C(=O)O)NC(=O)[C@H](CCC(N)=O)NC(=O)[C@H](C)NC(=O)[C@@H](NC(=O)[C@H](CCCCN)NC(=O)[C@H](CC(=O)O)NC(=O)[C@H](CC(C)C)NC(=O)C(C)(C)NC(=O)[C@@H](NC(=O)[C@H](CO)NC(=O)[C@H](Cc1ccc(O)cc1)NC(=O)[C@H](CC(=O)O)NC(=O)[C@H](CO)NC(=O)[C@@H](NC(=O)[C@H](Cc1ccccc1)NC(=O)[C@@H](NC(=O)CNC(=O)[C@H](CCC(=O)O)NC(=O)C(C)(C)NC(=O)[C@@H](N)Cc1ccc(O)cc1)[C@@H](C)O)[C@@H](C)O)[C@@H](C)CC)[C@@H](C)CC)C(C)C)C(=O)N[C@@H](C)C(=O)NCC(=O)NCC(=O)N1CCC[C@H]1C(=O)N[C@@H](CO)C(=O)N[C@@H](CO)C(=O)NCC(=O)N[C@@H](C)C(=O)N1CCC[C@H]1C(=O)N1CCC[C@H]1C(=O)N1CCC[C@H]1C(=O)N[C@@H](CO)C(N)=O
subjects with adverse event (item: treatment-emergent upper respiratory tract infection; healthy subjects; 1.5 mg, multiple ascending dose): 0%

CCc1c(C(=O)C(N)=O)c2c(OCC(=O)O)cccc2n1Cc1ccccc1
remaining activity (Daboia russelii venom phospholipase A2; enzyme activity, inhibitor; TN population; 0.01 µM, with: NOB substrate; relative to: venom alone): 100%

O=C(NC[C@H]1Cc2ccccc2CN1C(=O)c1n[nH]c(=O)[nH]c1=O)c1cccc2ccncc12
inhibition (rep main protease; enzyme activity, inhibitor; 5 µM, run 2): 9.3%

C[C@@H]1CC[C@]2(C(=O)O)CC[C@]3(C)C(=CC[C@@H]4[C@@]5(C)CC[C@H](O)C(C)(C)[C@@H]5CC[C@]43C)[C@@H]2[C@]1(C)O
inhibition (rep main protease; reporter gene (mKate2), inhibitor; 20 µM): -1.46%

CC(C)C[C@H](NC(=O)[C@H](C)NC(=O)[C@H](CCC(=O)O)NC(=O)[C@@H](N)Cc1c[nH]cn1)C(=O)N[C@@H](CO)C(=O)N[C@@H](CC(=O)O)C(=O)N1CCC[C@H]1C(=O)N[C@@H](CC(=O)O)C(=O)O
koff (Transcriptional regulatory protein EmbR (embR, Mycobacterium tuberculosis, UniProt P9WGJ9); biolayer interferometry; 25 °C): 0.000356 ± 0.000101 s⁻¹

Cc1nc(N)c2cnn(C3CCN(C(=O)c4ccc(S(=O)(=O)F)cc4)CC3)c2n1
kinact/KI (Calmodulin-sensitive adenylate cyclase (cya, Bacillus anthracis, UniProt P40136); enzyme activity, inhibitor): 581 M⁻¹ s⁻¹

Cn1cnc(Cn2c(=O)[nH]/c(=N\c3cc4cn(C)nc4cc3Cl)n(Cc3cc(F)c(F)cc3F)c2=O)n1
patients with adverse event (human, all renal function groups; oral, 375 mg, decreased GFR TEAE, Severe severity): 0%

Nc1cccc(-c2nsc(=O)o2)c1
kinact/KI (Proteasome subunit beta, open-gate 20S proteasome (prcB, Mycobacterium tuberculosis, UniProt P9WHT9); enzyme activity, inhibitor): 286 M⁻¹ s⁻¹

CC[C@H](C)[C@H](NC(=O)[C@@H]1CCCN1C(=O)[C@H](C)NC(=O)[C@@H]1CSSC[C@@H]2NC(=O)[C@H](CC(=O)O)NC(=O)[C@H](CCCNC(=N)N)NC(=O)[C@H](CCC(=O)O)NC(=O)[C@H](CCCNC(=N)N)NC(=O)CNC(=O)[C@H](CC(=O)O)NC(=O)[C@@H]3CSSC[C@H](NC(=O)[C@H](CCC(=O)O)NC(=O)[C@H](CC(C)C)NC(=O)CNC(=O)[C@H](C)NC(=O)[C@H](CSSC[C@H](NC(=O)[C@H](Cc4ccccc4)NC(=O)[C@@H](N)CO)C(=O)N[C@@H](CC(C)C)C(=O)N[C@@H](C(C)C)C(=O)N[C@@H](CCCCN)C(=O)N[C@@H](Cc4c[nH]c5ccccc45)C(=O)N[C@@H](CCCCN)C(=O)N[C@@H](CCC(N)=O)C(=O)N3)NC2=O)C(=O)N[C@@H](Cc2c[nH]c3ccccc23)C(=O)N[C@@H](CCCCN)C(=O)N[C@@H](CCCNC(=N)N)C(=O)N[C@@H](CO)C(=O)NCC(=O)N[C@@H](CC(N)=O)C(=O)N[C@@H](CCCCN)C(=O)N[C@@H](CO)C(=O)N[C@@H](CO)C(=O)N[C@@H](C(C)C)C(=O)N1)C(=O)N[C@H](C(=O)O)[C@@H](C)O
deactivation fold change (Acid-sensing ion channel 1 (ASIC1, Homo sapiens, UniProt P78348, F352A); outside-out patch clamp; HEK-293T ASIC1a knockout; 1 µM, F352A mutant; relative to: before toxin): 1 ± 0.1 fold

Excerpt of the above:
C[C@]1(C(=O)N[C@@H]2CC[C@H]3C[C@@H]2CN3C(=O)Cc2cncc(O)c2)CCc2ccccc2C1
inhibition (rep main protease; enzyme activity, inhibitor; 5 µM, run 1): 13.8%

CO[C@H]1[C@@H](O)[C@H](O[C@@H]2[C@@H](C)O[C@@H](O[C@H]3CC[C@@]4(C)[C@@H](CC[C@@]56O[C@@]57CC[C@@H](C(C)=O)[C@@]7(C)[C@H](OC(C)=O)[C@@H](OC(=O)c5ccccc5)[C@H]46)C3)C[C@H]2OC)O[C@H](C)[C@H]1O
kon (Spike glycoprotein; binding, biolayer interferometry): 7790 M⁻¹ s⁻¹
